Results pooled from the literature.
A part holds a random share of what one study measured. Several values in a cell are separate wells, animals, samples, runs or records.

Study 1
Target: CRBN/Zinc finger protein Helios (Homo sapiens, UniProt Q96SW2+Q9UKS7)
Sequence of UniProt Q9UKS7 (whole entry, looked up): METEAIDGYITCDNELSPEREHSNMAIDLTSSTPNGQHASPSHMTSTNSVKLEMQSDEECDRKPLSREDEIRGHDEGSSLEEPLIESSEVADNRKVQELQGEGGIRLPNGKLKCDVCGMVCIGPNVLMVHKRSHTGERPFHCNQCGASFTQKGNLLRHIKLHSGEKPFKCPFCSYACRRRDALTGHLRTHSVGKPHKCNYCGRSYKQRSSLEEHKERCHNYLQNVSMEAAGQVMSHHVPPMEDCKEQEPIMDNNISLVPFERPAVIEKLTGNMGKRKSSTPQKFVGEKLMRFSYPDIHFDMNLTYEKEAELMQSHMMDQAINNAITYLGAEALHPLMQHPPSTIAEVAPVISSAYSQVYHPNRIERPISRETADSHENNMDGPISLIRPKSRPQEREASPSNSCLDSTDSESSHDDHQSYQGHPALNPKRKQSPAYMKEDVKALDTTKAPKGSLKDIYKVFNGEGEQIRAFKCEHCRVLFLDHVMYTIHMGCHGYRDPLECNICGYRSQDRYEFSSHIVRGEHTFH
Sequence of UniProt Q96SW2 (whole entry, looked up): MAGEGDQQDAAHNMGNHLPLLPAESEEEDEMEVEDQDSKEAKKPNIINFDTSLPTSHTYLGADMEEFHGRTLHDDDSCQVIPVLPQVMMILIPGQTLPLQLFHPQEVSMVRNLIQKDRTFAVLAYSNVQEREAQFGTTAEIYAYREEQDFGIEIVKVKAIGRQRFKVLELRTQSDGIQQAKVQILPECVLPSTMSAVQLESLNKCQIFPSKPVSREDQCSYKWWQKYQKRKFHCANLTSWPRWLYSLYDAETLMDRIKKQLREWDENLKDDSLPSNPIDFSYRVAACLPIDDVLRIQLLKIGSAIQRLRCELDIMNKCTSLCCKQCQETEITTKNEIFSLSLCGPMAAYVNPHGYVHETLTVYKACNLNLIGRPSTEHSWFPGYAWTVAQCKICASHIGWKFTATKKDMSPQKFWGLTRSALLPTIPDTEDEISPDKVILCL
Action: degrader
Technique: HiBiT
Cells: HEK293
Tested at: 1.524 nM
For `O=C1CCC(N2Cc3c(ccc4c3OCC43CCC(Oc4ccccc4)CC3)C2=O)C(=O)N1` (stereo not shown), the protein remaining was 98.2%.
For `O=C1CCC(N2Cc3c(ccc4c3OCCC43CCN(Cc4ccccc4)CC3)C2=O)C(=O)N1` (stereo not shown), the protein remaining was 97.4%.
For `O=C1CCC(N2Cc3c(ccc4c3OCC43CCC(Cc4ccccc4)CC3)C2=O)C(=O)N1` (stereo not shown), the protein remaining was 101%.

Study 2
Target: Serine/threonine-protein kinase NLK (NLK, Homo sapiens, UniProt Q9UBE8)
Read-out: enzyme activity
Action: inhibitor
Tested at: 0.5 µM
Relative to: control
Residues (Q9UBE8 1-527): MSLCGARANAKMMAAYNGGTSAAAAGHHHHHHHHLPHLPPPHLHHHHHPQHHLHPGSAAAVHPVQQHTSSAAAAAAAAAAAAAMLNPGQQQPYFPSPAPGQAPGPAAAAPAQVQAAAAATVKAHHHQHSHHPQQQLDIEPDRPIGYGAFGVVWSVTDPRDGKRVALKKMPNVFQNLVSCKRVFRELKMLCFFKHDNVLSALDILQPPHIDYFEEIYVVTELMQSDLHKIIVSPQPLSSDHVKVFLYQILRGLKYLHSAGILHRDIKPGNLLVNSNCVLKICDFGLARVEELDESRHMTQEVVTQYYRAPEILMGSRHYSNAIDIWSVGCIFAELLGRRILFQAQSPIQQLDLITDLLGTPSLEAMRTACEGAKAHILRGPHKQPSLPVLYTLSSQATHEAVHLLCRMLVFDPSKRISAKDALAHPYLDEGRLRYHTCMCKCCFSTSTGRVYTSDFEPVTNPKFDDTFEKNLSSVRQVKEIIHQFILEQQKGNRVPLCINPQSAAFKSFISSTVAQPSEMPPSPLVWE
For `CC(C)(C)c1nc2c3cc[nH]c(=O)c3c3cc(F)ccc3c2[nH]1`, the remaining activity was 26.1%.
With `NC(=O)c1ccc(-c2nc(-c3ccc4c(c3)OCCO4)c(-c3ccccn3)[nH]2)cc1` the remaining activity was 103%.
With `N#C/C(=C(/N)SC1C=CC=CC1)c1cccc(C(O)c2ccncc2)c1` (stereo not shown) the remaining activity was 100%.
With `O=C1c2ccccc2-c2nc3nnnn3nc21` the remaining activity was 98.2%.
`CCN(CC)CCCCN1c2ccccc2Oc2ccc(Cl)cc21` gave a remaining activity of 101%.
`O=c1c(-c2ccc(F)cc2)c(-c2ccncc2)[nH]n1-c1ccc(Cl)cc1` gave a remaining activity of 16%.
With `Nc1nc(Nc2ccc(S(N)(=O)=O)cc2)nn1C(=S)Nc1c(F)cccc1F` the remaining activity was 45.1%.
The remaining activity of `CNc1cc2c(Nc3cccc(Br)c3)ncnc2cn1` is reported as 84.3%.
With `CC(C)n1cnc2c(Nc3cccc(Cl)c3)nc(NCCO)nc21` the remaining activity was 102%.
`N#CC(c1ccnc(NCCc2cccnc2)n1)c1nc2ccccc2s1` (stereo not shown) has a remaining activity of 94.9%.
The remaining activity of `COc1cc2c(N3CCN(C(=O)Nc4ccc(OC(C)C)cc4)CC3)ncnc2cc1OCCCN1CCCCC1` is reported as 105%.
The remaining activity of `O=C(c1ccccc1)c1ccc(N2CCOCC2)cc1O` is reported as 97.3%.
With `O=Nc1c(-c2c(O)[nH]c3ccccc23)[nH]c2ccccc12` the remaining activity was 94.6%.
`COc1cc2c(Nc3ccc(Br)cc3F)ncnc2cc1OCC1CCN(C)CC1` gave a remaining activity of 96.2%.
The remaining activity of `NC(=O)c1cccc(-c2cc(Nc3ccc(OC(F)(F)F)cc3)ncn2)c1` is reported as 93.4%.
With `Clc1ccc(Nc2nnc(Cc3ccncc3)c3ccccc23)cc1` the remaining activity was 99.3%.
`C[C@@H](N)[C@H]1CC[C@H](C(=O)Nc2ccncc2)CC1` has a remaining activity of 85.6%.
With `CC(C)N(CCC(=O)c1ccc2ccccc2c1)Cc1ccccc1` the remaining activity was 94.8%.
With `O=C1NC(=O)/C(=C/c2ccc3c(c2)OC(F)(F)O3)S1` the remaining activity was 93.8%.
`FC(F)(F)c1ccc(/C=C/c2nc(COc3ccc(CCCCn4ccnn4)cc3)co2)cc1` gave a remaining activity of 101%.
`O=C(O)/C=C/c1cc(Br)c(Br)c(Br)c1Br` gave a remaining activity of 99.1%.
With `c1cc(-c2cnn3cc(-c4ccc(OCCN5CCCCC5)cc4)cnc23)ccn1` the remaining activity was 58.1%.
`CCCCc1c(-c2ccc(O)cc2)[nH]c2nccnc12` has a remaining activity of 90.3%.

Study 3
Cell line: mouse MPNST tumor cells
Technique: high-content immunofluorescence imaging
Measured: nuclear SOX9
Tested at: 10 µM
Time: 12 h
Setting: mean of 2 replicates
Relative to: DMSO control
Direction: higher = more nuclear SOX9
Under “nuclear SOX9 intensity”, `Cc1ccc(C(C)(O)c2nc3ccccc3s2)c(C)c1` (stereo not shown) is recorded as 116 % of DMSO.
For `CCOc1ncc(S(=O)(=O)N2CCN(CC)CC2)cc1-c1nc2c(CC)n(CCOC)nc2c(=O)[nH]1`, “nuclear SOX9 intensity” read 91.1 % of DMSO.
`CC(C)NC[C@@H](O)COc1cccc2ccccc12` — result for “nuclear SOX9 intensity”: 110 % of DMSO.
Under “nuclear SOX9 intensity”, `COc1cc(NC(=O)c2ccc(-c3ccc(Cl)cc3)o2)cc(OC)c1` is recorded as 120 % of DMSO.
`COc1ccc(C(=O)CC(=O)c2ccc(C(C)(C)C)cc2)cc1`: “nuclear SOX9 intensity” 97.3 % of DMSO.
For `CC1CCc2nc(N)c(C#N)c(-c3cccnc3)c2C1` (stereo not shown), “nuclear SOX9 intensity” read 144 % of DMSO.
Under “nuclear SOX9 intensity”, `Oc1c(F)cc(-c2cnccc2-c2ccc(N3CCOCC3)cc2)cc1F` is recorded as 92.3 % of DMSO.
Under “nuclear SOX9 intensity”, `CCCCC(=O)N(Cc1ccc(-c2ccccc2-c2nnn[nH]2)cc1)[C@H](C(=O)O)C(C)C` is recorded as 87 % of DMSO and 96.7 % of DMSO.

Study 4
Cell line: normal-adjacent organoid sample F
Technique: CellTiter-Glo
Tested at: 1 µM
Setting: replicate mean
Relative to: DMSO
The viability of `CO[C@@H](C)c1c(Nc2ccc([C@H](N(C)C(=O)C3CCS(=O)(=O)CC3)C(F)(F)F)cc2)cnc2cc(Cl)nn12` is reported as 81.7%.
`C[C@@H]1CN(c2cc(-c3nn(C)c4ccc(OC5(C)CC5)cc34)ncn2)C[C@H](C)O1` gave a viability of 99.9%.
The viability of `C[C@H](NC(=O)c1cnc2n1[C@](C)(Cc1ccc(C#N)cc1)C(=O)N2c1cc(Cl)c(F)c(Cl)c1)C(=O)NC1(c2ccccn2)CC1` is reported as 109%.
The viability of `O=C1NC(c2ccccn2)Sc2ccccc21` (stereo not shown) is reported as 105%.
With `CC(=O)Nc1c(C(C)=O)c(=O)n(C)c2nc(-c3ccc(Cl)cc3Cl)c(-c3ccc(Cl)cc3)cc12` the viability was 111%.
With `CN(C)c1ncnc(-c2ccc3nc(Nc4cc(CN5CCN(C(=O)CC(F)(F)F)CC5)ccn4)[nH]c3c2)c1Cl` the viability was 101%.
`O=C(NCc1ncc(C(F)(F)F)cc1Cl)c1ccc2c(c1)C1(CCS(=O)(=O)CC1)[C@@H](C1CC1)N2S(=O)(=O)c1ccc(F)cc1` has a viability of 99.8%.
`O=C(Nc1cccnn1)N1CCC(=Cc2cccc(Oc3ccc(C(F)(F)F)cn3)c2)CC1` gave a viability of 102%.
For `Cc1nc(N2CC[C@@H](O)C2)ncc1-c1cc(C(F)(F)F)cc2[nH]ncc12`, the viability was 100%.
`CCc1ccccc1C(=O)Nc1n[nH]c2c(C)c(F)c(C3C(C#N)=C(C)N(C)C(C)=C3C#N)cc12` gave a viability of 102%.
`CCS(=O)(=O)c1cc2cc(C[C@](O)(CC(C)(C)c3ccc(F)cc3C(N)=O)C(F)(F)F)[nH]c2cn1` has a viability of 112%.
The viability of `CC(=O)Nc1c(F)cc(C(=O)N[C@H]2CC[C@H](O)CC2)cc1O[C@@H](C)c1ccccc1` is reported as 76.2%.
With `NS(=O)(=O)c1cc(NC(=O)C2(c3ccccc3Cl)CC2)ccc1Oc1cccc(Cl)c1` the viability was 101%.
`CC(=O)c1c(NS(C)(=O)=O)c2cc(-c3ccc(Cl)cc3)c(-c3ccc(Cl)cc3Cl)nc2n(C)c1=O` has a viability of 111%.
With `Cc1c(N2CCNCC2)nc2ccc(Br)cc2c1C(=O)NC[C@H](CCC(=O)O)c1ccccc1Cl` the viability was 88.8%.

Some of these lines once more (study 3):
Under “nuclear SOX9 intensity”, `COc1cc(NC(=O)c2ccc(-c3ccc(Cl)cc3)o2)cc(OC)c1` is recorded as 120 % of DMSO.
`COc1ccc(C(=O)CC(=O)c2ccc(C(C)(C)C)cc2)cc1`: “nuclear SOX9 intensity” 97.3 % of DMSO.
For `CC1CCc2nc(N)c(C#N)c(-c3cccnc3)c2C1` (stereo not shown), “nuclear SOX9 intensity” read 144 % of DMSO.
